Published values pooled from the literature.
Lines come from different studies, so protocols differ. ± gives the spread as reported.
Sequence of UniProt P11509 (whole entry, looked up): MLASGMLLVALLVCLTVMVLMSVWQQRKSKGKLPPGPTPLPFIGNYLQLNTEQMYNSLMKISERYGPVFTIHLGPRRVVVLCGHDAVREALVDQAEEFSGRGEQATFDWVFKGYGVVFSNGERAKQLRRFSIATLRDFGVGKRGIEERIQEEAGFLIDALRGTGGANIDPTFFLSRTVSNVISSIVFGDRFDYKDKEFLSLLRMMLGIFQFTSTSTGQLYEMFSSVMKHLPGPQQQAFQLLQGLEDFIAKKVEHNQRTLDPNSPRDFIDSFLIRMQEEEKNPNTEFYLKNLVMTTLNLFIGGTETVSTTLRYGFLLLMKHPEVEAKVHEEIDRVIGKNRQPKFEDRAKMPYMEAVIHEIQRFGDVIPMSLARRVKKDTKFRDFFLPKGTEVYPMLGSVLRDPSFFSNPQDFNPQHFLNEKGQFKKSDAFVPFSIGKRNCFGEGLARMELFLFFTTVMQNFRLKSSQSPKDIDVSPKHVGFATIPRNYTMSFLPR
Sequence of UniProt Q92887 (whole entry, looked up): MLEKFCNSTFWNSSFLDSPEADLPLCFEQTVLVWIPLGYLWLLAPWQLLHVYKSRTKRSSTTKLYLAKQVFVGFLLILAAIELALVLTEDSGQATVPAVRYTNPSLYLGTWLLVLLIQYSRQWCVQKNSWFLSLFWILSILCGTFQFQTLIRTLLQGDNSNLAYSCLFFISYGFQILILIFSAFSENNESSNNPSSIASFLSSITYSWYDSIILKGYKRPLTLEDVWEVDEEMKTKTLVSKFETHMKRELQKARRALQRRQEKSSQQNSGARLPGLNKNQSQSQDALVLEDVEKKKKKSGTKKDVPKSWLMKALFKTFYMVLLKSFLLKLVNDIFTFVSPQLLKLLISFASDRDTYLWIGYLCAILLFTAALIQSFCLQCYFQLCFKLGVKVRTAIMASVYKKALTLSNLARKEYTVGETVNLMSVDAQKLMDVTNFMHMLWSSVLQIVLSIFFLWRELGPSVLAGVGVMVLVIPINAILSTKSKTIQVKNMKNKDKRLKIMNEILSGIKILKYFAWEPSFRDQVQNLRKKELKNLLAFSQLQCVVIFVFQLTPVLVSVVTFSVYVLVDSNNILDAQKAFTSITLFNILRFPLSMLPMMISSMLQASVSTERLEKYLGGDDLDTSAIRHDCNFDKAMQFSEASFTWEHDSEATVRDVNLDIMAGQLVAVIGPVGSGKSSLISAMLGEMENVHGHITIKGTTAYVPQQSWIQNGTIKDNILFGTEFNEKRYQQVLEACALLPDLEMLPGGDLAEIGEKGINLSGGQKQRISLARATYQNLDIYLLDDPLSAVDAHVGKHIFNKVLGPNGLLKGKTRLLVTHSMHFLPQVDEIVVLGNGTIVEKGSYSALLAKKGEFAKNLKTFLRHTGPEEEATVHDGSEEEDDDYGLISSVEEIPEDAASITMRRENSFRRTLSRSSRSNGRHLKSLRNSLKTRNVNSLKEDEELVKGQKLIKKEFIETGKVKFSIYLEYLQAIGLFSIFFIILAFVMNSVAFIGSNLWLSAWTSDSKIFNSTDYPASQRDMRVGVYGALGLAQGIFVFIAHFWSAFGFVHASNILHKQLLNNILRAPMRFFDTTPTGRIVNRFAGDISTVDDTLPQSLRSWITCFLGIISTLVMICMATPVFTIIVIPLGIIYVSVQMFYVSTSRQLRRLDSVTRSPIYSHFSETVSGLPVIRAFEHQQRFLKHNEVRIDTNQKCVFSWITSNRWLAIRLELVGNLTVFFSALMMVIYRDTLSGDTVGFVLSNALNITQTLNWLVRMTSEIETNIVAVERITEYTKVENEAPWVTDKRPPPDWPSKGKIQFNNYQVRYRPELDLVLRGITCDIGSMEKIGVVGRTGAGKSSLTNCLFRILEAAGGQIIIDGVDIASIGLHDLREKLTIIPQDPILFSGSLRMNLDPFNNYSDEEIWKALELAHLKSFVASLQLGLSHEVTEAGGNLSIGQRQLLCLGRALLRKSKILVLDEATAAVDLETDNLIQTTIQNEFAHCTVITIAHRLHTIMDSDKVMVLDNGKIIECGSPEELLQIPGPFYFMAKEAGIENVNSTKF
Sequence of UniProt P08682 (whole entry, looked up): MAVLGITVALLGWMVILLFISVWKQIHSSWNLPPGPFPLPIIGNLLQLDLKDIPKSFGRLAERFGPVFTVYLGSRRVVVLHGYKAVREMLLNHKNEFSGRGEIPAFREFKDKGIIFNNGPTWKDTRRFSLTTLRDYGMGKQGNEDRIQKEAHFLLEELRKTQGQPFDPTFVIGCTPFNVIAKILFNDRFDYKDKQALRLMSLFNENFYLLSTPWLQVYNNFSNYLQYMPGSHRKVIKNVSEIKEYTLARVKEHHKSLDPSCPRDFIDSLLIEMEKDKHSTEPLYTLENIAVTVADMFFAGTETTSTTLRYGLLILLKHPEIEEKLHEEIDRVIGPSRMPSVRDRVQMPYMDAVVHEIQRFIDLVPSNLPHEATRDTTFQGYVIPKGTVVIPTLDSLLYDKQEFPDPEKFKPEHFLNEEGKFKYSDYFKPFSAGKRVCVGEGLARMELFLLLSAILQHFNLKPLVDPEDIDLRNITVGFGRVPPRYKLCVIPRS
Sequence of UniProt Q7TMS5 (whole entry, looked up): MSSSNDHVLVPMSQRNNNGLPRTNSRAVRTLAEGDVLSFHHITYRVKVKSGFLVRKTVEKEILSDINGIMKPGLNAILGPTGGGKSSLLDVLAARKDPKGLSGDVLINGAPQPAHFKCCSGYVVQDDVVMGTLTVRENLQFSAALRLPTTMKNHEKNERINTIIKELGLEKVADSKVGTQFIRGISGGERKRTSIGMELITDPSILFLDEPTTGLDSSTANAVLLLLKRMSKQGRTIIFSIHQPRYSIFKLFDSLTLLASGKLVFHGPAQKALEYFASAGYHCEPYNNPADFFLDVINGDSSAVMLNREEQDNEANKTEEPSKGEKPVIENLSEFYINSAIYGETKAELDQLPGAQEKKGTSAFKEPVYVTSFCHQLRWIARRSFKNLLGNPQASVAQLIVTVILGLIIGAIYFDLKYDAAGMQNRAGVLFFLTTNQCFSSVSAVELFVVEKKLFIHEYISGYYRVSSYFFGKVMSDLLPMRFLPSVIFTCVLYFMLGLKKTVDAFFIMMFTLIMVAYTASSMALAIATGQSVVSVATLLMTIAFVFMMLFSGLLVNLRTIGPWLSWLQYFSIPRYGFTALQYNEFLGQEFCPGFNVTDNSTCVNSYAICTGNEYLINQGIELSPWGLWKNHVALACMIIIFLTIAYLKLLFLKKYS
Sequence of UniProt P20813 (whole entry, looked up): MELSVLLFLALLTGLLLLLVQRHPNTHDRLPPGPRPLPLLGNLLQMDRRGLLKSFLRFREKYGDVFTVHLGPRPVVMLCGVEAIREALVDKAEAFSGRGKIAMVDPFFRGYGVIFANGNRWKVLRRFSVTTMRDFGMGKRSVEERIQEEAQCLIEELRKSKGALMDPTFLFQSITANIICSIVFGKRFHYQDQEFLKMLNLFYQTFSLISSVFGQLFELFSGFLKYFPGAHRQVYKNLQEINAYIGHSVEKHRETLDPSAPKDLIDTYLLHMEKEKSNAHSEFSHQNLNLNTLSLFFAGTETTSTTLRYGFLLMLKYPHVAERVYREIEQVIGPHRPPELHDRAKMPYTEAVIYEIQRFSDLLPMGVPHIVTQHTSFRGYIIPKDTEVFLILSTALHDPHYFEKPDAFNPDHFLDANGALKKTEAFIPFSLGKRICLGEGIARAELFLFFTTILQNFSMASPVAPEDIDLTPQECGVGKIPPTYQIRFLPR

SMILES	target	test	test system	setting	how to read	quantity	value
O=C1Nc2c(O)cc(Cl)cc2[C@@](C#CC2CC2)(C(F)(F)F)O1	UGT		human cirrhosis		baseline: healthy	glucuronide metabolic ratio	increased
Cc1cccc(C)c1OCC(=O)N[C@@H](Cc1ccccc1)[C@@H](O)C[C@H](Cc1ccccc1)NC(=O)[C@H](C(C)C)N1CCCNC1=O	ABCC2 (Homo sapiens, UniProt Q92887)		MDCKII cells expressing target	25 µM, 3 h, added: MK571 75 µM		Papp A-B	31 ± 2 nm/s
Cc1ccc(Nc2nccc(N(C)c3ccc4c(C)n(C)nc4c3)n2)cc1S(N)(=O)=O	Broad substrate specificity ATP-binding cassette transporter ABCG2 (Mus musculus, UniProt Q7TMS5)	bidirectional transport	MDCK-Bcrp1 (murine Bcrp1)	5 µM, 240 min, added: erlotinib		Papp B-A	49.7 ± 1.5 nm/s
Cc1coc2c1CC[C@@H](C)C2	Cytochrome P450 2A6 (CYP2A6, Homo sapiens, UniProt P11509)	coumarin 7-hydroxylation, inactivator, reconstituted enzyme		20 µM, 10 min, 30 °C	baseline: without NADPH	remaining activity	28.5 ± 1.6%
CN(C)CCCN1c2ccccc2CCc2ccccc21	alpha-1-acid glycoprotein (human)	isothermal titration calorimetry		pH 7.4, 30 °C, heterogeneous AGP preparation		Kd	69.9 µM
c1n[nH]c2c1CCCC2	CYP2E1 (Oryctolagus cuniculus, UniProt P08682)	spectral titration		pH 7.4, 25 °C, first catalytic site		Kd	0.023 µM
O=c1ccc2ccccc2o1	CYP2A6 human	7-hydroxylation, substrate	human liver microsomes	CYP2A6 added 216 pmol/mg, ratio 0.5		Km	1.48 ± 0.23 µM
CC1=N[C@]2(C(=O)CO)[C@@H](C[C@H]3[C@@H]4C[C@@H](O)C5=CC(=O)C=C[C@]5(C)[C@H]4[C@@H](O)C[C@@]32C)O1	Cytochrome P450 2B6 (CYP2B6, Homo sapiens, UniProt P20813)	enzyme activity, inhibitor	human, liver microsomes	with preincubation		IC50	> 50 µM
CC[C@H](C)[C@H](NC(=O)[C@H](CCC(=O)O)NC(=O)[C@H](CO)NC(=O)[C@@H](NC(=O)[C@@H](N)CO)C(C)C)C(=O)N[C@@H](CCC(N)=O)C(=O)N[C@@H](CC(C)C)C(=O)N[C@@H](CCSC)C(=O)N[C@@H](Cc1cnc[nH]1)C(=O)N[C@@H](CC(N)=O)C(=O)N[C@@H](CC(C)C)C(=O)NCC(=O)N[C@@H](CCCCN)C(=O)N[C@@H](Cc1cnc[nH]1)C(=O)N[C@@H](CC(C)C)C(=O)N[C@@H](CC(N)=O)C(=O)N[C@@H](CO)C(=O)N[C@@H](CCSC)C(=O)N[C@@H](CCC(=O)O)C(=O)N[C@@H](CCCN=C(N)N)C(=O)N[C@H](C(=O)N[C@@H](CCC(=O)O)C(=O)N[C@@H](Cc1c[nH]c2ccccc12)C(=O)N[C@@H](CC(C)C)C(=O)N[C@@H](CCCN=C(N)N)C(=O)N[C@@H](CCCCN)C(=O)N[C@@H](CCCCN)C(=O)N[C@@H](CC(C)C)C(=O)N[C@@H](CCC(N)=O)C(=O)N[C@@H](CC(=O)O)C(=O)N[C@H](C(=O)N[C@@H](Cc1cnc[nH]1)C(=O)N[C@@H](CC(N)=O)C(=O)N[C@@H](Cc1ccccc1)C(=O)O)C(C)C)C(C)C	Chymotrypsinogen A, activated (chymotrypsin) (Bos taurus, UniProt P00766)	substrate, HPLC-UV		30 min, pH 6.5, 37 °C, without trypsin inhibitor		remaining intact compound	0%

Repeated from above:
SMILES	target	test	test system	setting	how to read	quantity	value
CN(C)CCCN1c2ccccc2CCc2ccccc21	alpha-1-acid glycoprotein (human)	isothermal titration calorimetry		pH 7.4, 30 °C, heterogeneous AGP preparation		Kd	69.9 µM
